Measurements collected from several papers.
Numbered parts are unrelated; each lists some results of a single study.

Set 1
Target: PABPC1L2, full length, GST fusion (mouse, UniProt A0ABA7IW68)
Technique: RNAcompete
Molecule type: RNA
Medium: in vitro
Tested at: 20 nM
Notes: 7-mer, probes averaged, single round
Reference: mean of 7-mers
Reading: higher = stronger binding
Construct (chain): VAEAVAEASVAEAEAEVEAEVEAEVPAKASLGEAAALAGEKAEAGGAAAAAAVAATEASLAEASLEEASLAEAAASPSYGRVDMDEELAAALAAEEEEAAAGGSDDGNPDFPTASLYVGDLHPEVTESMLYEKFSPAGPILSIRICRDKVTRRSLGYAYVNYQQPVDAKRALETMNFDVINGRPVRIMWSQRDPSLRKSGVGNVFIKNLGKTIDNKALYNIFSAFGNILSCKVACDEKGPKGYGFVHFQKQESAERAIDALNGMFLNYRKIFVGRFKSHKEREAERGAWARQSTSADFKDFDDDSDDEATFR
Strand	7-mer Z-score
UAUGGCG	0.0315
ACUCAGU	-0.22
UUGGAAA	0.798
UCGACGC	-0.228
GGUGUGG	0.0587
CGCACCA	-0.0355
GUACGUA	-0.191

Set 2
Target: Interferon regulatory factor 7, full length, phosphomimetic (IRF7, Homo sapiens, UniProt Q92985, residues 1-503, S471D/S472D/S475D/S476D/S477D/S483D/S484D/S487D)
Technique: protein-binding microarray
Molecule type: double-stranded DNA, one strand shown
Medium: in vitro
Tested at: 2200 nM top
Notes: 60-bp whole probe
Together with: salmon DNA 0.4 mg/ml
Reference: random background probes
Reading: higher = stronger binding
Target sequence (chain): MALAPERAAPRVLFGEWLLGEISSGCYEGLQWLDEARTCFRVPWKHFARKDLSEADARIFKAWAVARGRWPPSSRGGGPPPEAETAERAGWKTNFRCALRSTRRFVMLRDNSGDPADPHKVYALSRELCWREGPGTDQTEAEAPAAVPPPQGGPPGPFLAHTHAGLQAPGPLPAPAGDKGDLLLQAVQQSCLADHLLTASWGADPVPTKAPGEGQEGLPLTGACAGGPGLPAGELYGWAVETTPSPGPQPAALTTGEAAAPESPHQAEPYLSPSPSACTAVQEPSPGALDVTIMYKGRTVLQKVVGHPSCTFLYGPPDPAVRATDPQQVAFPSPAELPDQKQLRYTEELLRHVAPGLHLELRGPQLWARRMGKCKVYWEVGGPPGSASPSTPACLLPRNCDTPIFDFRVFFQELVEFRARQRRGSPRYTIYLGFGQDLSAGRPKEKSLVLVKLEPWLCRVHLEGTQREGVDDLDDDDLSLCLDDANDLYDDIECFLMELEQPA
Strand	fitted relative affinity [z-score]
GCCTAGCACGATGATATCGGGTATCGAGACGTGCTAGTCTTGATTCGCTTGACGCTGCTG	0.0931
GCCTAGCACGACGATCACAGTCTCGAGACGTGCTAGGTCTTGATTCGCTTGACGCTGCTG	0.208
GCCTAGCACTTATCAATCATTTTCGTTTTGTGCTAGGTCTTGATTCGCTTGACGCTGCTG	11.2

Set 3
Target: Histone acetyltransferase KAT6A, winged helix 2, GST fusion (KAT6A, Homo sapiens, UniProt Q92794, residues 85-181)
Technique: protein binding microarray
Molecule type: double-stranded DNA, one strand shown
Medium: in vitro
Tested at: not given
Notes: 8-mer, flanks averaged, mean of 2 arrays, mostly near background
Reference: not given
Reading: higher = stronger binding
Construct (chain): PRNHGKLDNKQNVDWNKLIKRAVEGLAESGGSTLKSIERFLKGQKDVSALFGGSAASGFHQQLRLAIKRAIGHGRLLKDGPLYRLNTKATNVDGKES
Strand	E-score
AAATGGAG	0.0512
TGAAGACA	0.0774
AGAAGGAA	0.0115
TGCTGAAA	0.161
AGTGACAC	0.0784

Mixed results
Substance	target	test	test system	setting	how to read	endpoint	value
PhoQ, residues 284 288 289 292 302 303 SSTLSG	PhoP, residues 12 14 15 18 19 STWGI (Escherichia coli, UniProt P23836)	Sort-seq, refers to: YFP reporter	E. coli	PhoQ-PhoP variant library, together with: 10 µM Mg2+	reference: high Mg2+ state, higher = stronger signaling	fold induction	5.26
